Assay results of several laboratories.
Compare with care: the assays were run in different laboratories. Several values in a cell are separate wells, animals, samples, runs or records. ± gives the spread as reported. Values after ≈ are worked out from the molar mass of the structure shown.

CCCC[C@H](NC(=O)CNC(=O)CNC(=O)[C@H](CCCCNC(=O)[C@H](CC(=O)O)NC(=O)C(C)c1ccc(CC(C)C)cc1)NC(=O)CN1CCN(CC(=O)O)CCN(CC(=O)O)CCN(CC(=O)O)CC1)C(=O)N[C@H]1CC(=O)NCCCC[C@@H](C(N)=O)NC(=O)[C@H](Cc2c[nH]c3ccccc23)NC(=O)[C@H](CCCNC(=N)N)NC(=O)[C@@H](Cc2ccccc2)NC(=O)[C@H](Cc2c[nH]cn2)NC1=O (stereo partly drawn) [lutetium-177 labelled]  tumour-to-tissue ratio (C57 mice, tumour; intravenous, 0.037 MBq, 0.5 h; relative to: muscle): 20.5
CCOC(=O)[C@H](Cc1ccc(OC)cc1)NC(=O)c1ccc(C2CC2)c(Cc2ccc(F)cc2)n1  kinetic solubility (aqueous buffer with DMSO): 1.6 µg/mL (≈ 3.36 µM)
C=CC(=O)Nc1cc(Nc2nccc(-c3cn(C)c4ccccc34)n2)c(OC)cc1N(C)CCNC  recovery (human plasma; 72 h, storage stability, low QC sample): 57%
C=C[C@]1(C)C[C@@H](OC(=O)CSc2ccc(NC(=O)c3ccco3)cc2)[C@]2(C)[C@H](C)CC[C@]3(CCC(=O)[C@H]32)[C@@H](C)[C@@H]1O  plasma concentration (Mycoplasma gallisepticum-infected chickens, plasma; intramuscular, 5 mg/kg, 12 h): 0.00189 µg/mL and 0.014 µg/mL and 0.0018 µg/mL and 0.0127 µg/mL and 0.00304 µg/mL and 0.00821 µg/mL
CC(C)CCCC(C)C1CCC2C3CC=C4CC(OC(=O)CCC(=O)NCCCOCCOCCOCCCNC(=O)c5ccc(C(=O)O)c(-c6c7ccc(=O)cc-7oc7cc(O)ccc67)c5)CCC4(C)C3CCC12C (stereo not drawn)  hydrodynamic radius (fluorescence correlation spectroscopy; water; 36 °C): 0.79 nm
CN(O)C(=O)CCC(=O)NCCCN(CCCCN(CCCNC(=O)CCC(=O)N(C)O)C(=O)CCC(=O)N(C)O)C(=O)CCC(=O)N(C)O.[89Zr]  tracer uptake (mouse, fat; 1 h): 0.21 %ID/g
CN1CCC[C@]1(C)/C=C/S(=O)(=O)NC(=O)Nc1c2c(cc3c1CC(O)C3)CCC2 (stereo partly drawn)  AUC(0-24) (human, plasma; oral, 100 mg twice daily of parent drug, day 1, metabolite of dosed drug): 160 µg·h/mL
COc1ccc(Nc2nc(Nc3ccc(OCCOCCOCC[18F])cc3)ncc2Br)cc1  uptake ratio (ICR mice, S180 tumour; intravenous, 370 kBq, 30 min; relative to: tumour over bone): 1.06
CCC1=[N+]2N=C(c3ccccc3)C(=O)O[B-]2(c2ccccc2)Oc2cc(N(CC)CC)ccc21 (stereo not drawn)  hydrolysis activation energy (UV/vis decay; aqueous buffer): 95.1 kJ/mol
CC[C@H](C)[C@H](NC(=O)[C@@H](NC(=O)[C@H](CCCCN)NC(=O)[C@@H](NC(=O)[C@@H]1CCCN1[C@@H]1CN(C(=O)[C@@H](NC(=O)[C@@H](NC(=O)[C@@H](NC(=O)[C@@H](NC(=O)[C@@H](NC(=O)[C@@H](N)CCCCN)C(C)C)C(C)C)C(C)C)[C@@H](C)CC)[C@@H](C)O)CC[C@H]1NS(=O)(=O)c1ccc(C)cc1)[C@@H](C)O)C(C)C)C(=O)N[C@@H](CC(C)C)C(=O)N[C@@H](Cc1c[nH]cn1)C(N)=O  beta-sheet content (circular dichroism; methanol; 125 µM, 20 °C): 83%
N#Cc1ccnc(N2C(=O)CC[C@H]2C(=O)N(c2cncc(F)c2)[C@H](C(=O)NC2CC(F)(F)C2)c2ccccc2Cl)c1  tissue/plasma ratio (rat, brain; oral, 50 mg/kg, single dose): 0.041
O=C(Nc1cnccc1-c1ccc([18F])cc1)c1ccnc(NC(=O)C2CC2)c1  SUV (mice, transgenic, GSK-3β, early-stage, small intestine; intravenous, dose not given, 120 min, added: tariquidar 15 mg/kg i.v. pre-dose): 2.21
C=Cc1ccc([B-]23OC(=O)C(c4ccccc4)=N[N+]2=Cc2ccc(N(CC)CC)cc2O3)cc1 (stereo not drawn)  hydrolysis activation energy (UV/vis decay; aqueous buffer): 96.5 kJ/mol
CN1CCC[C@]1(C)/C=C/S(=O)(=O)NC(=O)Nc1c2c(cc3c1C(O)CC3)CCC2 (stereo partly drawn)  AUC(0-24) (human, plasma; oral, 100 mg twice daily of parent drug, day 14, metabolite of dosed drug): 398 µg·h/mL
CC(C)(O)c1ncc([S@](N)(=O)=NC(=O)Nc2c3c(cc4c2CCC4)CCC3)s1  subjects with TEAEs (refers to: skin, subcutaneous tissue disorders; healthy human; oral, 100 mg, CT formulation, fed): 33%
CC(=O)N([O-])CCCCCNC(=O)CCC(=O)N([O-])CCCCCNC(=O)CCC(=O)N([O-])CCCCCN.[89Zr+4]  intact compound (0.9 % NaCl saline; 5 days, pH 4.5, 37 °C): 98.2 ± 2.1%
C/C(N)=N/C(=N\S(=O)(=O)c1ccc(C(F)(F)F)cc1)N1C[C@H](c2ccccc2)C(c2ccc(Cl)cc2)=N1  Cmax (female cynomolgus monkey, plasma; oral, 6 mg/kg): 1.19 µg/mL
CC(C)c1cnc(-c2cc(Cl)ccc2F)cc1Nc1ccncc1C(=O)NC(CO)CO  Tmax (female C57BL/6 mice, plasma; oral, 30 mg/kg twice daily, day 7, MC-38 tumour-bearing): 3 h
N#Cc1ccnc(N2Cc3cn(Cc4ccc(F)cc4)nc3C2)n1  half-life (metabolic stability; human, liver microsomes): 0.85 h
Cc1nn(-c2nc3c(F)cc(F)cc3s2)c(O)c1C(c1ccc(C(F)(F)F)cc1)c1c(C)nn(-c2nc3c(F)cc(F)cc3s2)c1O  AUMC(0-t) (ICR mouse, plasma; intravenous, 5 mg/kg): 215000 h²·ng/mL and 771000 h²·ng/mL and 195000 h²·ng/mL
Cc1cccc(-c2ccc3nc(NC(=O)C4CCCCC4)nn3c2)c1  metabolic turnover (mouse liver microsomes; 30 min): 100%
COC1CN([C@H]2CC[C@H]([C@@]3(C)Oc4c(Cl)cc(C(=O)NCc5c(SC)cc(C)[nH]c5=O)c(C)c4O3)CC2)C1  log2 fold change (RNA-seq, refers to: SLC41A2 mouse homolog; mouse, HT-1376 xenograft, whole blood; dose not given; relative to: vehicle): 0.526
O=C(O)CCCCC1(N(CC(=O)O)CC(=O)O)CN(CC(=O)O)CCN(CC(=O)O)C1  protonation constant (log) (pH-potentiometry, refers to: logK5H; 0.15 M NaClO4; 25 °C): 2.83
O=C(NS(=O)(=O)c1cccs1)c1cc2ccccc2n1Cc1ccc(Br)c2ccccc12  plasma concentration (Sprague-Dawley rat, male; oral, dose not given, 0.25 h): 2.52 µg/mL
Cc1cc(-c2ccc(C(=O)[C@@H]3CCCC[C@H]3C(=O)Nc3cnn4c3C(=O)NCC4)cc2)[nH]n1  recovery of radioactivity per interval (human, urine; oral, 200 mg, 24-48 h; relative to: dose): 0.34%
Cc1noc(C)c1Cn1cc(N2C(=O)CN(Cc3cccc(O[C@@H]4O[C@H](C(=O)O)[C@@H](O)[C@H](O)[C@H]4O)c3)C2=O)cn1  plasma concentration (rat Sprague-Dawley male, plasma; oral, 100 mg/kg of parent drug, 0.5 h): 0.166 ± 0.0469 µg/mL
CC[C@H](C)[C@@H](C(=O)N[C@@H](CC(C)C)C(=O)N[C@@H](CO)C(=O)N[C@@H](CO)C(=O)N[C@H](C(=O)N[C@@H](CCC(=O)O)C(=O)N[C@H](C(=O)NCC(=O)N[C@@H](CO)C(=O)N[C@@H](CC(N)=O)C(=O)N[C@H](C(=O)N1C[C@H](O)C[C@H]1C(N)=O)[C@@H](C)O)C(C)C)[C@@H](C)O)N(C)C(=O)[C@H](C)NC(=O)CN(C)C(=O)[C@H](Cc1ccccc1)NC(=O)[C@H](CO)NC(=O)[C@H](CO)NC(=O)[C@H](CCCNC(=N)N)NC(=O)[C@H](CCC(N)=O)NC(=O)[C@H](CC(C)C)NC(=O)[C@H](Cc1ccccc1)NC(=O)[C@H](CCCC(=O)O)NC(=O)[C@H](C)NC(=O)[C@H](CC(C)C)NC(=O)[C@H](CCCNC(=N)N)NC(=O)[C@H](CCC(=O)O)NC(=O)[C@@H](NC(=O)[C@H](C)NC(=O)[C@@H]1CCCCNC(=O)C[C@H](NC(=O)[C@H](CCCNC(=N)N)NC(=O)CC[C@H](NC(=O)CCCCCCCCCCCCCCCCCCC(=O)O)C(=O)O)C(=O)NCC(=O)N[C@@H]([C@@H](C)O)C(=O)N[C@@H](C)C(=O)N[C@@H]([C@@H](C)O)C(=O)N1)[C@@H](C)O  particle size (DLS; Tris buffer, mannitol, NaCl; pH 6.6, 25 °C): 2 to 4 nm
[123I]c1ccc2nc(-c3ccc(-n4ccnn4)nc3)cn2c1  tracer uptake (male Wistar rat, lung; intravenous, 4 MBq, 30 min): 0.399 %ID/g
O=C(Nc1cnccc1-c1ccc([18F])nc1)c1ccnc(NC(=O)C2CC2)c1  SUV (PET imaging; FVB/NJ mice, both sexes, brain; intravenous, 15 min post-injection, P-gp inhibited, added: tariquidar 15 mg/kg iv, 2 h before): 0.186
CCCC[C@H](OC(C)=O)c1ccccc1C(=O)O  AUC(0-tau) (beagle dog, both sexes, whole blood; intravenous, 1.5 mg/kg, day 7): 1.37 ± 0.408 µg·h/mL
C=C(NC(=O)c1csc(-c2nc3c(cc2O)-c2nc(cs2)C(=O)NC(C(C)O)C(=O)NC(=C(C)OC)c2nc(cs2)C(=O)NC2c4nc(cs4)C(=O)NC(COC(=O)c4c5c6c(cccc6n4O)COC(=O)C(OC4CC(C)(O)C(N(C)C)C(C)O4)C2OC5)c2nc-3cs2)n1)C(N)=O (stereo not drawn)  half-life (male cynomolgus monkey, plasma; intravenous, 3 mg/kg, single dose, infusion): 4.71 h
CC(C)(C)NCC(SS(=O)(=O)O)c1ccccc1 (stereo not drawn)  body weight (Schistosoma mansoni-infected Swiss Webster mice; oral, daily x4, 100 mg/kg, from day 21, perfusion day 36): 29.9 g and 28.9 g and 27.4 g
Cc1ccc(OCC(=O)N(Cc2cccs2)c2ccn[nH]2)cc1  remaining compound (rat plasma; 750 ng/mL, 4 h, 37 °C, unit not given; relative to: time zero): 0.4
Cc1nc(N)nc2c1C(=O)N[C@@H](c1ccc(F)cc1-c1cccc(O[11CH3])n1)C2  SUV (radioligand, ex vivo biodistribution; healthy mouse, red blood cells; 60 min p.i.): 0.7 ± 0.1
CN1CCC[C@]1(C)/C=C/S(=O)(=O)NC(=O)Nc1c2c(cc3c1CCC3)CCC2  subjects with adverse event (refers to: transaminases increased, probably related; human; oral, 50 mg twice daily, 14 days, multiple ascending dose): 0%
C=CC(=O)Nc1cc(Nc2nccc(-c3c[nH]c4ccccc34)n2)c(OC)cc1N(C)CCN(C)C  recovery (storage stability; human plasma; 24 h, on ice, high QC level): 82.3%
CCCCN1C(=O)c2cccc3c(NCCCCCCCCCCN4CCOCC4)ccc(c23)C1=O  fluorescence lifetime (dioxane): 10 ns
Cc1ccc(CN2C(=O)/C(=N\c3ccc(Cl)cc3Br)c3ccccc32)cc1  haemoglobin (mouse, blood; 100 mg/kg): 143 ± 4.91 g/L
O=C(NCC(F)(F)F)c1cccc(N2Cc3cn(Cc4ccc(F)cc4)nc3C2)c1  half-life (metabolic stability; human, liver microsomes): 6.1 h

A few entries again:
O=C(O)CCCCC1(N(CC(=O)O)CC(=O)O)CN(CC(=O)O)CCN(CC(=O)O)C1  protonation constant (log) (pH-potentiometry, refers to: logK5H; 0.15 M NaClO4; 25 °C): 2.83
CCCC[C@H](OC(C)=O)c1ccccc1C(=O)O  AUC(0-tau) (beagle dog, both sexes, whole blood; intravenous, 1.5 mg/kg, day 7): 1.37 ± 0.408 µg·h/mL
C=CC(=O)Nc1cc(Nc2nccc(-c3c[nH]c4ccccc34)n2)c(OC)cc1N(C)CCN(C)C  recovery (storage stability; human plasma; 24 h, on ice, high QC level): 82.3%
CCCCN1C(=O)c2cccc3c(NCCCCCCCCCCN4CCOCC4)ccc(c23)C1=O  fluorescence lifetime (dioxane): 10 ns
C=C(NC(=O)c1csc(-c2nc3c(cc2O)-c2nc(cs2)C(=O)NC(C(C)O)C(=O)NC(=C(C)OC)c2nc(cs2)C(=O)NC2c4nc(cs4)C(=O)NC(COC(=O)c4c5c6c(cccc6n4O)COC(=O)C(OC4CC(C)(O)C(N(C)C)C(C)O4)C2OC5)c2nc-3cs2)n1)C(N)=O (stereo not drawn)  half-life (male cynomolgus monkey, plasma; intravenous, 3 mg/kg, single dose, infusion): 4.71 h
